Measurements from different studies.
Each line is one published result; not all experiments were run side by side.
Target: Bone morphogenetic protein receptor type-2 (BMPR2, Homo sapiens, UniProt Q13873)
One construct used (Q13873 27-1038): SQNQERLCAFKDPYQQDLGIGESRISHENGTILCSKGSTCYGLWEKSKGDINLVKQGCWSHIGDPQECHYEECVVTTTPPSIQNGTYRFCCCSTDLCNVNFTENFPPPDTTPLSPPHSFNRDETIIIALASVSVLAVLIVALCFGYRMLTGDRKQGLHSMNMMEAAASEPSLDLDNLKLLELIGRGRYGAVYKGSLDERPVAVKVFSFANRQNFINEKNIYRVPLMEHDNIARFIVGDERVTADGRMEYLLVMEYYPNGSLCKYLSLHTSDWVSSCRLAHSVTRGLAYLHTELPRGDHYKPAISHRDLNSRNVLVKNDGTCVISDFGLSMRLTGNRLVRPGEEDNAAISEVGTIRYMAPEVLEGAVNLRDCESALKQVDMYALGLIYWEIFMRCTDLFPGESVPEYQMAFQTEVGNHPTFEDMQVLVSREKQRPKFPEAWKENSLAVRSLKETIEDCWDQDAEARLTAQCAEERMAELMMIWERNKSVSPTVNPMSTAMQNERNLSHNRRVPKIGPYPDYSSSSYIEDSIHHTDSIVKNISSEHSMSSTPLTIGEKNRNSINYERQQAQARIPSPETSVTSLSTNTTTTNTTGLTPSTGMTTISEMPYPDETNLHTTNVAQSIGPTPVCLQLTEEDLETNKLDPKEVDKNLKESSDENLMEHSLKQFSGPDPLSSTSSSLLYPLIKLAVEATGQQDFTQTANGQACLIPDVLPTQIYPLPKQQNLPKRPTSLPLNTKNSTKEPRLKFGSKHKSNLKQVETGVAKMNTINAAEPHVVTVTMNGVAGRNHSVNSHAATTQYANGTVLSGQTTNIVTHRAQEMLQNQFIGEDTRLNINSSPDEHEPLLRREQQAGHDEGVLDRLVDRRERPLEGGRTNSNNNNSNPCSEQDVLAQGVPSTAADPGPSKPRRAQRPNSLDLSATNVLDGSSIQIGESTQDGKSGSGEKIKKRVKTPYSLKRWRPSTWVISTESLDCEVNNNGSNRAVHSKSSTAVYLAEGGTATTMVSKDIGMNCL

The inhibition of `CN1CC[C@@H](COc2cnc(C#N)cc2-c2ccn3nc(NC(=O)C4CC4)cc3c2)C1` is reported as -9% (enzyme activity, inhibitor; 1 µM).
With `CNC1C[S+]2CC[S+]3CC[S+](C1)[Ru-4]321([N]=C=S)[n]2c3ccc(OC)cc3c3c4c(c5cc(F)c[n+]1c5c32)C(=O)NC4=O` (stereo not shown) the remaining binding was 100% (KinomeScan; 0.1 µM; baseline: untreated).
The inhibition of `NC(=O)[C@@H](O)C[C@H]1CCc2sc3ncnc(O[C@H]4CC[C@H](N5CCOCC5)CC4)c3c21` is reported as 37% (enzyme activity, inhibitor; 10 µM).
`CNC(=O)C[C@H](Cc1ccc(C#N)cc1)NC(=O)c1cc(-c2ccc(CN[C@H](C)c3ccc(C)cc3)o2)ccc1Cl` — result for “activity vs control”: 98% (enzyme activity, inhibitor; 1 µM).
With `C=CC(=O)N1CCc2ccc(-n3c(=O)ccc4cnc5ccc(-c6cnn(C)c6)cc5c43)cc21` the remaining binding was 100% (KINOMEscan; 1 µM; baseline: DMSO control).
For `COc1cc(Nc2nccc(-c3cnn4nc(OC)ccc34)n2)cc(C(F)(F)F)c1`, the remaining binding was 77% (binding, competition with immobilised ligand; 1 µM).
`Cc1ccc(-c2c(/C=C(\C#N)C(=O)NC(C)C)n(CCCO)c3ncnc(N)c23)cc1` gave a remaining binding of 72% (cell-free assay, competition with immobilised ligand; 1 µM).
For `CN1CCN(Cc2ccc(NC(=O)c3cccc(C#Cc4cnc(N)c5ncccc45)c3)cc2C(F)(F)F)CC1`, the remaining binding was 100% (cell-free assay, competition with immobilised ligand; 0.5 µM).
`Cc1cnc2nc1Nc1cccc(c1)COC/C=C/COCc1cc(ccc1OCCN1CCOCC1)N2`: “percent of control” 90% (concentration not given).
With `CN1CCN(Cc2ccc(-c3ccc(CO[C@H]4CCC[C@@H]4NC(=O)c4cc(-c5cnn(C)c5)cnc4N)cc3)cc2)CC1` the inhibition was -3% (enzyme activity, inhibitor; 0.1 µM).
`C=CC(=O)N1CCCC(n2c(=O)c3ncccc3n(Cc3ccc(Oc4ccccc4)cc3)c2=O)C1` (stereo not shown) has a remaining binding of 76% (cell-free assay, competition with immobilised ligand; 1 µM).
With `CCN1CCN(Cc2ccc(C(=O)Nc3ccc(C)c(NCc4cnc5[nH]ccc5c4OC)c3)cc2C(F)(F)F)CC1` the remaining binding was 84% (binding, competition with immobilised ligand; 1 µM).
`C=C1CCCCCCCCCC(CO)C1=O` (stereo not shown) gave a remaining signal of 75% (cell-free assay; 10 µM).

Some of these lines once more:
The inhibition of `NC(=O)[C@@H](O)C[C@H]1CCc2sc3ncnc(O[C@H]4CC[C@H](N5CCOCC5)CC4)c3c21` is reported as 37% (enzyme activity, inhibitor; 10 µM).
